Measurements collected from several papers.
± marks the error that the study gave.
Method: steady-state kinetics
B1: protein Y93D (Thermus thermophilus, UniProt Q5SKR5); chain MSAPKPFVIGIAGGTASGKTTLAQALARTLGERVALLPMDHYYKDLGHLPLEERLRVNYDHPDAFDLALYLEHAQALLRGLPVEMPVYDFRADTRSPRRTPVRPAPVVILEGILVLYPKELRDLMDLKVFVDADADERFIRRLKRDVLERGRSLEGVVAQYLEQVKPMHLHFVEPTKRYADVIVPRGGQNPVALEMLAAKALARLARMGAA
B2: enzyme P89H (Thermobifida fusca, UniProt Q47RA9); chain MIMIMASKSSPHDLPDVSGLSIAVLGGTGDQGRGLARRFAMAGHEVILGSRSAERAQAVAAELGEGLPVRGMDNAGAAEAGDVVIVAVHWDGHRALLESLKDVLAGKIVVDCVNPLGFDKRGAYALPVEEGSAAEQAAAILPDSRVVAAFHHVSAVLLLDPEVEKVDLDVLVLGDDREATDVVRALAARIPGVRGVYGGRLRNAHQVEAFTANLISINRRYKAHAGIRITDI
B3: ycjR (Escherichia coli, UniProt P76044); chain MKIGTQNQAFFPENILEKFRYIKEMGFDGFEIDGKLLVNNIEEVKAAIKETGLPVTTACGGYDGWIGDFIEERRLNGLKQIERILEALAEVGGKGIVVPAAWGMFTFRLPPMTSPRSLDGDRKMVSDSLRVLEQVAARTGTVVYLEPLNRYQDHMINTLADARRYIVENDLKHVQIIGDFYHMNIEEDNLAQALHDNRDLLGHVHIADNHRYQPGSGTLDFHALFEQLRADNYQGYVVYEGRIRAEDPAQAYRDSLAWLRTC
B4: MMP2 (Homo sapiens, UniProt P08253); chain YNFFPRKPKWDKNQITYRIIGYTPDLDPETVDDAFARAFQVWSDVTPLRFSRIHDGEADIMINFGRWEHGDGYPFDGKDGLLAHAFAPGTGVGGDSHFDDDELWTLGEGQVVRVKYGNADGEYCKFPFLFNGKEYNSCTDTGRSDGFLWCSTTYNFEKDGKYGFCPHEALFTMGGNAEGQPCKFPFRFQGTSYDSCTTEGRTDGYRWCGTTEDYDRDKKYGFCPETAMSTVGGNSEGAPCVFPFTFLGNKYESCTSAGRSDGKMWCATTANYDDDRKWGFCPDQGYSLFLVAAHEFGHAMGLEHSQDPGALMAPIYTYTKNFRLSQDDIKGIQELYGASPDIDLGTGPTPTLGPVTPEICKQDIVFDGIAQIRGEIFFFKDRFIWRTVTPRDKPMGPLLVATFWPELPEKIDAVYEAPQEEKAVFFAGNEYWIYSASTLERGYPKPLTSLGLPPDVQRVDAAFNWSKNKKTYIFAGDKFWRYNEVKKKMDPGFPKLIADAWNAIPDNLDAVVDLQGGGHSYFFKGAYYLKLENQSLKSVKFGSIKSDWLGC
B5: alanine racemase H166A (Geobacillus stearothermophilus, UniProt P10724); chain MNDFHRDTWAEVDLDAIYDNVENLRRLLPDDTHIMAVVKANAYGHGDVQVARTALEAGASRLAVAFLDEALALREKGIEAPILVLGASRPADAALAAQQRIALTVFRSDWLEEASALYSGPFPIHFHLKMDTGMGRLGVKDEEETKRIVALIERHPHFVLEGLYTAFATADEVNTDYFSYQYTRFLHMLEWLPSRPPLVHCANSAASLRFPDRTFNMVRFGIAMYGLAPSPGIKPLLPYPLKEAFSLHSRLVHVKKLQPGEKVSYGATYTAQTEEWIGTIPIGYADGWLRRLQHFHVLVDGQKAPIVGRICMDQCMIRLPGPLPVGTKVTLIGRQGDEVISIDDVARHLETINYEVPCTISYRVPRIFFRHKRIMEVRNAIGRGESSA
B6: Ma-WS/DGAT A144F (Marinobacter nauticus); chain MTPLNPTDQLFLWLEKRQQPMHVGGLQLFSFPEGAPDDYVAQLADQLRQKTEVTAPFNQRLSYRLGQPVWVEDEHLDLEHHFRFEALPTPGRIRELLSFVSAEHSHLMDRERPMWEVHLIEGLKDRQFALYTKVHHSLVDGVSFMRMATRMLSENPDEHGMPPIWDLPCLSRDRGESDGHSLWRSVTHLLGLSGRQLGTIPTVAKELLKTINQARKDPAYDSIFHAPRCMLNQKITGSRRFAAQSWCLKRIRAVCEAYGTTVNDVVTAMCAAALRTYLMNQDALPEKPLVAFVPVSLRRDDSSGGNQVGVILASLHTDVQEAGERLLKIHHGMEEAKQRYRHMSPEEIVNYTALTLAPAAFHLLTGLAPKWQTFNVVISNVPGPSRPLYWNGAKLEGMYPVSIDMDRLALNMTLTSYNDQVEFGLIGCRRTLPSLQRMLDYLEQGLAELELNAGL
B7: HGXPRT (Trypanosoma cruzi, UniProt Q4DRC3); chain MISSQQAMVHVVSRNAEGVIVVDGKAYPMAEELVATESVIQRSIKAVAKQIADFYRPLSHRDTHGGGGVAPISDENPLIIISVLKGSYIFTADMVRYLGDYGLPHVVDFLRVASYRGTSSTNKMKLLAETQFKALRGKHVLILEDIVDSGKTLRYILDKVQREHQPATLKVCVLADKPGGRRVTMQPDFVCLTVPNKYVIGYGFEVNDRFRCFRHIFTLRPGEARRYPAHL
B8: Mj-MAT W387F/Y323W (Methanocaldococcus jannaschii, UniProt Q58605); chain MRNIIVKKLDVEPIEERPTEIVERKGLGHPDSICDGIAESVSRALCKMYMEKFGTILHHNTDQVELVGGHAYPKFGGGVMVSPIYILLSGRATMEILDKEKNEVIKLPVGTTAVKAAKEYLKKVLRNVDVDKDVIIDCRIGQGSMDLVDVFERQKNEVPLANDTSFGVGYAPLSTTERLVLETERFLNSDELKNEIPAVGEDIKVMGLREGKKITLTIAMAVVDRYVKNIEEYKEVIEKVRKKVEDLAKKIADGYEVEIHINTADDYERESVYLTVTGTSAEMGDDGSVGRGNRVNGLITPFRPMSMEAASGKNPVNHVGKIWNILANLIANDIAKLEGVKECYVRILSQIGKPINEPKALDIEIITEDSYDIKDIEPKAKEIANKFLDNIMEVQKMIVEGKVTTF
B9: enzyme (Mortierella alpina, UniProt U5Y3C6); chain MAPPNTIDAGLTQRHISTSAPNSAKPAFERNYQLPEFTIKEIRECIPAHCFERSGLRGLCHVAIDLTWASLLFLAATQIDKFENPLIRYLAWPVYWIMQGIVCTGVWVLAHECGHQSFSTSKTLNNTVGWILHSMLLVPYHSWRISHSKHHKATGHMTKDQVFVPKTRSQVGLPPKENAAAAVQEEDMSVHLDEEAPIVTLFWMVIQFLFGWPAYLIMNASGQDYGRWTSHFHTYSPIFEPRNFFDIIISDLGVLAALGALIYASMQLSLLTVTKYYIVPYLFVNFWLVLITFLQHTDPKLPHYREGAWNFQRGALCTVDRSFGKFLDHMFHGIVHTHVAHHLFSQMPFYHAEEATYHLKKLLGEYYVYDPSPIVVAVWRSFRECRFVEDQGDVVFFKK
UniProt Q29437, sequence (whole entry, looked up): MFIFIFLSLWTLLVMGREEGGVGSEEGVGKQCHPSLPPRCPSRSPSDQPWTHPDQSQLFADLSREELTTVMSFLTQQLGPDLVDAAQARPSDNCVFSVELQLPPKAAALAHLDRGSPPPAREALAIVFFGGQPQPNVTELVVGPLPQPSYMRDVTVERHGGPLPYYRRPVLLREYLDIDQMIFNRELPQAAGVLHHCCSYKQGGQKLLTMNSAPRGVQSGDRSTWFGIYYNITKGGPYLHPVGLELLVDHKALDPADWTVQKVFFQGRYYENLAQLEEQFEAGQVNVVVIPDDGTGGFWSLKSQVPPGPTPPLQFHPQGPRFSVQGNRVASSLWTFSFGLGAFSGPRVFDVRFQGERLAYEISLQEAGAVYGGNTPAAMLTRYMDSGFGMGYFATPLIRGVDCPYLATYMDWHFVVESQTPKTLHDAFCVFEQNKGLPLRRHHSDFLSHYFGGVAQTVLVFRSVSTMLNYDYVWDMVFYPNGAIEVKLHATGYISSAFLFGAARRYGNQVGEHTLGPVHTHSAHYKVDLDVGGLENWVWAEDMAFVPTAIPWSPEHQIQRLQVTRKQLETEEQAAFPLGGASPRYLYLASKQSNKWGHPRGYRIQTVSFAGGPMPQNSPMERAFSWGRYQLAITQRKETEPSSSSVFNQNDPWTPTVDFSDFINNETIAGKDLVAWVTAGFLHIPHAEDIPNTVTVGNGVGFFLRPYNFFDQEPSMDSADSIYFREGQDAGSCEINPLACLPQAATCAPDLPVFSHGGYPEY
UniProt P19337, sequence (whole entry, looked up): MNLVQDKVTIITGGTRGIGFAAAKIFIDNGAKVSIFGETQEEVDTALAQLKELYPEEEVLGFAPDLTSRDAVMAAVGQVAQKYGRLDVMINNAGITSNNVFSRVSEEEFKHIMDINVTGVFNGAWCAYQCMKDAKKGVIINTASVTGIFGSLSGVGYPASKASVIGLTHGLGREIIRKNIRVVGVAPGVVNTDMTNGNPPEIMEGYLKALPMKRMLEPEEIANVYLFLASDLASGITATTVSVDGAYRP
UniProt Q8KN33, sequence (whole entry, looked up): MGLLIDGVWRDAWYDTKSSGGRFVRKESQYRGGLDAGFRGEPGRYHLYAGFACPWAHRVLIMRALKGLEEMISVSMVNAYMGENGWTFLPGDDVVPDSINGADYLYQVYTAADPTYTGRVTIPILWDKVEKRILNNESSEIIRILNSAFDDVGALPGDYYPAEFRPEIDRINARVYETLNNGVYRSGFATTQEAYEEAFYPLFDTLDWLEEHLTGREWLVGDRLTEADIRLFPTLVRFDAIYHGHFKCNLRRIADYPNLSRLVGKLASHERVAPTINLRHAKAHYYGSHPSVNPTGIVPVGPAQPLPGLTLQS
UniProt Q9STE6, sequence (whole entry, looked up): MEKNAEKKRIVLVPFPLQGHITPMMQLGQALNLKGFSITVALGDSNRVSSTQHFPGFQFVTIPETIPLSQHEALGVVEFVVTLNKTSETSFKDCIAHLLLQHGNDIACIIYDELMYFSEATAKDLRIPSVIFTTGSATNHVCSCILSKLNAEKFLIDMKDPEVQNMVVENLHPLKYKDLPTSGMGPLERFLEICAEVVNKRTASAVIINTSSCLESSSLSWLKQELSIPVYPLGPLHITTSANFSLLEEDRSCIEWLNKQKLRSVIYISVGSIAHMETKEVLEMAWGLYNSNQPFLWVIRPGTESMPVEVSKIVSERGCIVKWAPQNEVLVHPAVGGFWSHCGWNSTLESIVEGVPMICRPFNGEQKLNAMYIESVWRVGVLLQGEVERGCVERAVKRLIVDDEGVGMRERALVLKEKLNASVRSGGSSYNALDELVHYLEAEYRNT
UniProt P94679, sequence (whole entry, looked up): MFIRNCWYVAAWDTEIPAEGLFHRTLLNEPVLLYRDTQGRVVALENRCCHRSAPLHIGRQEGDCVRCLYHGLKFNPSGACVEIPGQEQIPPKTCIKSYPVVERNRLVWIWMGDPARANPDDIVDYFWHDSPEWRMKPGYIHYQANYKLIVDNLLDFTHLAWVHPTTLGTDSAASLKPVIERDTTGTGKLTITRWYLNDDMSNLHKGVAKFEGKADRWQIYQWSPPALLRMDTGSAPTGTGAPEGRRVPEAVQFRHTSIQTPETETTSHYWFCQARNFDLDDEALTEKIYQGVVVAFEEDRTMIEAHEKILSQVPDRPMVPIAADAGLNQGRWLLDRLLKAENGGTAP
UniProt G0RH19, sequence (whole entry, looked up): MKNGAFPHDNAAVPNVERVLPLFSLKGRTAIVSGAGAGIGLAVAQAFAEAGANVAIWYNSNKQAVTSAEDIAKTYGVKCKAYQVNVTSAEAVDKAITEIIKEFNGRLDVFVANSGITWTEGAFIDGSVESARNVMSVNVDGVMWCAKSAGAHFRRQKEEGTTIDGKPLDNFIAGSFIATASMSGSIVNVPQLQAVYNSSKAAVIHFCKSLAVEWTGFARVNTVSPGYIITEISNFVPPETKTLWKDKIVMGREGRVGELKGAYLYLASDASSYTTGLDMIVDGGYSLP

Substance = enzyme (Arabidopsis thaliana, UniProt Q9STE6); substrate = CC(=O)N[C@H]1[C@@H](OP(=O)(O)OP(=O)(O)OC[C@H]2O[C@@H](n3ccc(=O)[nH]c3=O)[C@H](O)[C@@H]2O)O[C@H](CO)[C@@H](O)[C@@H]1O; pH = pH 7.5; temperature = 25 °C; kcat = 0.0166 s⁻¹
Substance = Plasma amine oxidase (Bos taurus, UniProt Q29437); substrate = CN(C)CCOc1ccc2cc(CN)ccc2c1; pH = pH 7.2; temperature = 30 °C; kcat = 0.436 ± 0.02 s⁻¹
Substance = BaiA2 (Clostridium scindens, UniProt P19337); substrate = C[C@H](CCC(=O)SCCNC(=O)CCNC(=O)[C@H](O)C(C)(C)COP(=O)(O)OP(=O)(O)OC[C@H]1O[C@@H](n2cnc3c(N)ncnc32)[C@H](O)[C@@H]1OP(=O)(O)O)[C@H]1CC[C@H]2[C@@H]3CC[C@@H]4C[C@H](O)CC[C@]4(C)[C@H]3CC[C@]12C; pH = pH 8.7; temperature = 37 °C; added = NAD+; kcat = 0.183 s⁻¹
Substance = B1 (protein Y93D); substrate = Nc1ccn([C@@H]2O[C@H](CO)[C@@H](O)[C@H]2O)c(=O)n1; pH = pH 7.2; temperature = 25 °C; notes = KCl 100 mM; added = ATP 100–200 µM; kcat = 1.4 ± 0.6 s⁻¹
Substance = pcpF (Sphingobium chlorophenolicum, UniProt Q8KN33); substrate = OCCS; pH = pH 6.5; added = GS-TriCH, ascorbic acid 2 mM; kcat = 1.09 ± 0.06 s⁻¹
Substance = B2 (enzyme P89H); substrate = NC(=O)c1ccc[n+](CCO)c1; pH = pH 8; temperature = 25 °C; kcat = 0.0483 ± 0.00367 s⁻¹
Substance = B3 (ycjR); substrate = CO[C@@H]1O[C@H](CO)[C@@H](O)C(=O)[C@H]1O; pH = pH 8; temperature = 30 °C; added = MnCl2 0.5 mM, NADH 0.3 mM; kcat = 4 ± 0.6 s⁻¹
Substance = enzyme (Trichoderma reesei, UniProt G0RH19); substrate = NC(=O)C1=CN([C@@H]2O[C@H](COP(=O)(O)OP(=O)(O)OC[C@H]3O[C@@H](n4cnc5c(N)ncnc54)[C@H](OP(=O)(O)O)[C@@H]3O)[C@@H](O)[C@H]2O)C=CC1; pH = pH 7; notes = cofactor varied; kcat = 7.75 s⁻¹
Substance = B4 (MMP2); substrate = CC(=O)N[C@@H](CCC(N)=O)C(=O)N1CCC[C@H]1C(=O)N[C@@H](CCC(N)=O)C(=O)NCC(=O)N[C@@H](CC(C)C)C(=O)N[C@@H](C)C(=O)N[C@@H](CCCCN)C(N)=O; kcat = 36.5 s⁻¹
Substance = tsaM1 (Comamonas testosteroni, UniProt P94679); substrate = COc1cc(C(=O)O)ccc1O; notes = apparent; added = NADH 1 mM; kcat = 0.03 ± 0.0117 s⁻¹
Substance = enzyme (Clostridium autoethanogenum, UniProt A0ABM5NRF0); substrate = NC(=O)C1=CN([C@@H]2O[C@H](COP(=O)(O)OP(=O)(O)OC[C@H]3O[C@@H](n4cnc5c(N)ncnc54)[C@H](OP(=O)(O)O)[C@@H]3O)[C@@H](O)[C@H]2O)C=CC1; pH = pH 7.5; temperature = 25 °C; notes = cofactor varied; kcat = 68 ± 3 s⁻¹
Substance = enzyme (Vitis vinifera, UniProt F6H697); substrate = O=C(O)Cc1c[nH]c2ccccc12; pH = pH 8.6; temperature = 25 °C; kcat = 0.238 s⁻¹
Substance = B5 (alanine racemase H166A); substrate = C[C@@H](N)C(=O)O; pH = pH 9; temperature = room temperature; added = NAD+ 10 mM; kcat = 3.5 s⁻¹
Substance = B6 (Ma-WS/DGAT A144F); substrate = CCCCCC(=O)SCCNC(=O)CCNC(=O)[C@H](O)C(C)(C)COP(=O)(O)OP(=O)(O)OC[C@H]1O[C@@H](n2cnc3c(N)ncnc32)[C@H](O)[C@@H]1OP(=O)(O)O; pH = pH 7.5; temperature = 25 °C; notes = NaCl 300 mM, apparent; added = 1-hexanol 4 mM; kcat = 0.85 ± 0.03 s⁻¹
Substance = B7 (HGXPRT); substrate = Nc1nc2nc[nH]c2c(=O)[nH]1; pH = pH 8.3; temperature = 37 °C; notes = apparent; added = PRPP; kcat = 0.46 ± 0.01 s⁻¹
Substance = B8 (Mj-MAT W387F/Y323W); substrate = CSCC[C@H](N)C(=O)O; temperature = 55 °C; added = ATP 2.5 mM, methionine 0.05-1 mM; kcat = 1.62 ± 0.09 s⁻¹
Substance = B9 (enzyme); substrate = CCCCCC/C=C\CCCCCCCC(=O)SCCNC(=O)CCNC(=O)[C@H](O)C(C)(C)COP(=O)(O)OP(=O)(O)OC[C@H]1O[C@@H](n2cnc3c(N)ncnc32)[C@H](O)[C@@H]1OP(=O)(O)O; pH = pH 7.5; temperature = 28 °C; kcat = 0.005 ± 0.000333 s⁻¹

Some of these lines once more:
Substance = B5 (alanine racemase H166A); substrate = C[C@@H](N)C(=O)O; pH = pH 9; temperature = room temperature; added = NAD+ 10 mM; kcat = 3.5 s⁻¹
